Results from different studies.
Numbered parts are unrelated; each lists some results of a single study. Changes are numbered by the printed parent chain.

Series 1 — technique: protein binding microarray; form: double-stranded DNA, one strand shown; sample: in vitro; concentration: not given; relative to: not given; reading: higher = stronger binding
Target: Histone acetyltransferase KAT6A, winged helix 2, GST fusion (KAT6A, Homo sapiens, UniProt Q92794, residues 85-181)
Notes: 8-mer, flanks averaged, mean of 2 arrays, mostly near background
Residues (chain): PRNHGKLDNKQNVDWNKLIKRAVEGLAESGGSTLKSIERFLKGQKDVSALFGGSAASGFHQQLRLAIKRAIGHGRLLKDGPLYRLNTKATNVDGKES
Oligonucleotide | E-score
AGAGAACT | -0.0906
GACACGGA | 0.121
GATGCGCA | 0.0548
ATCTATTC | -0.0861
CCAAAAGA | 0.168
GCTAGTGA | 0.00881
AGTACCCG | 0.0615
ACCCCCGT | 0.0341
ATCGCTTA | -0.145
CGACGAAG | 0.179
GCAACCGA | 0.222
GGCAATAC | 0.0732
AACGTGCA | -0.228
CTGTTGGC | -0.0328
GATACAGA | -0.00253
AATGCCGA | 0.0836
AGACCTTG | -0.0254
CTACACGC | -0.0216
AAGTACTA | -0.0311
CCGGCGGA | 0.256
AGAATGGC | 0.00229
AGATGAGC | 0.0505
TCCGTTCA | 0.0047
ACTCCAAG | 0.00728
CTCACGCC | 0.0966

Series 2 — technique: RNA Bind-n-Seq; form: RNA; sample: in vitro; concentration: 365 nM; relative to: no-protein control; reading: higher = stronger binding
Target: RNA binding protein fox-1 homolog 2, RRM domain, GST-SBP tag (RBFOX2, Homo sapiens, UniProt O43251-10, residues 100-194)
Notes: natural RNA segment, single round, ends assumed
Constant ends, left off below: GGGAGUUCUACAGUCCGACGAUC … UGGAAUUCUCGGGUGCCAA
Residues (chain): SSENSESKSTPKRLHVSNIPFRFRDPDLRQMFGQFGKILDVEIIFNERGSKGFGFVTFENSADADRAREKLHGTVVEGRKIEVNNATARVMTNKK
Oligonucleotide | RBNS enrichment (R)
CCUACAAAUACCUGGAGCAGAUGCAGAUUUAGUGGCAGGGAGCGCGGCAGCCCUGGCGGAGGGAUGCAGGUGGGCCGGAAGAUCCCACGAUUCCGAUCGACUGCCAAGCA | 1.31
AGAUUUUACCUCUCAAAGGGUGAGAUUUGAAAUUUACACUAAAAAGACAACUUUACAUUUAAUGCUUCACUUAAUGAGACAUUCUUUUUUUUAUAAGUCUAUUUUUCUAC | 0.395
UUCACAGCAGGCCAGCUGCAGUGACUUGUCAUCAAGAGUCACCUCAGCUGCGCCCCCCUCCCAUCCUUUCCUAUGAGAAGCCACUGCUUUGGGGGCGCCGGCUAGAAAAA | 0.275
GUCAUGACACUUAGUAAGUUUGCUUCCUUUCUCUGUCAUUUGAUCCUAAGGUAACAUAUGUCUCACAUGUAUUCAGACAUACAGGAUGCUAAUCCACCUUGCAUCCUGCU | 0.304
AGGCCUGGGCCAUUGUCCUCAUCCUGUAGUCAGGGAUCAGGCAUGGGUUUUGAUUUCAGUUUUCCCCCUUUCUCUGCCCUGGGGGCUGGGCUCCUUAUUGCUGCUUAGGC | 0.556
AUUUUUAAUAUUUAAGGCCUUGAAAUUAUAUUCCAAGGCAAAUCUAAAUGGGUGUAGUUGUAUAUGCACGAUGUAAUUUAAUGCUAAAGAGUACUUACAGCUUGAGGGAA | 0.564
GCACUAAAGGGCCAGUACCAGUGAGUGGCCCCACCUGUGUCCCCGAUGCUGACCUCACCUGGUCCUCCGCCUACUGUCCCUCUCAGUGCCUUCUCUCAGCUCCCAGGCCA | 0.337
ACAGCGACUGGGAAAUAAUGGUCCCUACUUGCAUAAUUUGACUUCAGGCUUUUGGAGAAAAAGGACCCAAGUGACACUGAUGUUUACAAAGUACCUAUAAAACCCUGUAC | 0.356
UCAUAGUGAUGAAGGACAGCACUGCAGACAUCUCCCUUGCCAUCUCUAGCCUGCUGUGGAAGGAAACAACGUGACUCAAGAUGAAGCUGUUUGUAUGUAUCCUUAUCAAA | 2.48
GUGUGAAGGGACCUGUGGCCACCAGAGGAUGCUCUGGGCCUACUGAGGACAGGCCACUUGUGCUCAGAGAACCUCACCUCACCGCAGAAGUGGUGCCUCUUCCAGAAGAC | 0.479
ACUUGCCUUGAAGAAGAAAGGCGCUGACACGCUUAACGCAAACAGAAGGUCCACAAAUAGCAGUUCACAUCACAGCCCUGCAGUCCCCUUUUGUAGCUGUGUUUAAGGUC | 0.347
AACCGCCACCUUUAGAAUUUCCAACACUCAGGCUCUGCCCGUCGGCUUGGCUGCAGGACAGAGACUUGACUCCAUCCCAGCUCUGGUCUUGGCUGGGAUGGCACUACCCU | 0.232

Series 3 — technique: RNA Bind-n-Seq; form: RNA; sample: in vitro; concentration: not given; notes: RNA with constant flanks, ends assumed; relative to: input RNA pool; reading: higher = stronger binding
Target: RING finger protein unkempt homolog, zinc fingers 1-6, GST-SBP tag (UNK, Homo sapiens, UniProt Q9C0B0, residues 30-357)
Constant ends, left off below: GGGAGUUCUACAGUCCGACGAUC … CAACAGAGGAUUGAGCAUCA
Target sequence (chain): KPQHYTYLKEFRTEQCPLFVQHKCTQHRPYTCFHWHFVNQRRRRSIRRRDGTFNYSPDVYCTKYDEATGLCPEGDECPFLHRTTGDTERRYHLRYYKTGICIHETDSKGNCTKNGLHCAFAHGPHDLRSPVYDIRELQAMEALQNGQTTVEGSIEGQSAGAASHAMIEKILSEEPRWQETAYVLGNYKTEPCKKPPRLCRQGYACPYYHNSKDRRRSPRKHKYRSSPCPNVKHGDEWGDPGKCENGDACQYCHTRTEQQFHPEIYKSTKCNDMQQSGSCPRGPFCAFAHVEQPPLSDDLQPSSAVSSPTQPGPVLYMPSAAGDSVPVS
Oligonucleotide | bound/input enrichment [ratio]
UUUCACAGAGGCUGACCACCUUACACUGCUGGGUGGUCACAACUGCUCACCAUGUGAACACCGUACCUCAGUUCUGUCCUUGGCUGCAAUCGUUGUGUGCUCAGUGUUUUCUCAUAGGCA | 0.0933
AGCAUGGUUCGGCAUUCUUCAUCUCCAUAUGUAGUAUAUCCUUCGGAUAAGCCUUUCCUUAACCGUGAUCUACGACGCUCCCCAAGUAAGCCUACACUUGCCUAUCCAGAAAGCAACAGC | 0.117
AUAACAAUUGAUGUUUGUUUUCUGUUUGAUUUUAAACAGAGAAAAAAUAAAAGGGGGUAACCGCUCCUUUUUUCUUCUUUCUUUUUUUUUUUCAUUUCAAAAUUGCUGCCAGUGUUUUCA | 0.556
CAGAAUAAUAAGCUGAAUAGAAUCUGACCAUUGGCUUUCACCUGGCCAGGACCUUCUAUGCCGCUCUCCUUUUGUGGCCCAUGUGCUGCAUCCUCUGCCCUCAGUGUGCAACUGGCCCCC | 0.555
GAUAAGUGUGUGGAGAAGCCAGGAAGUCGGCUAGACUCCCGCACUGAAAACUGCCUCUCCCGCUGUGUGGAUCGCUUCAUUGACACUACUCUUGCCAUCACCGGUCGGUUUGCCCAGAUC | 0.223
UCCGAUAUGGACUACAUUCAGACAGACGCUAUCAUCAAUUAUGGAAAUUCCGGAGGCCCGUCCGUAAACCUGGAUGGCGAGGUGAUUGGGAUUAACACCUUGAAGGUGACGGCGGGCAUC | 0.28
UGUCUUGAUGACACAACAGUAAAAUUUGAAAUAUGGGAUACAGCUGGUCAAGAACGGUAUCACCGCUCCGCACCAAUGUACUACCGAGGAGCACAAGCAGCCAUAGUUGUGUAUGAUAUC | 0.227

Series 4 — target: CCNF, cyclin fold, Cln2 fusion (human); technique: yeast growth competition, sequencing; sample: yeast; notes: strong parent motif; relative to: not given; reading: higher = stronger binding
Starting sequence: ASZ1 docking peptide (human); GFGFLLFICKLTF
Substitution | normalised enrichment score
AFGFLLFICKLTF [G1A] | 2.48
GFGFLLFICKLTA [F13A] | 2.32
GFGFLLFICKLAF [T12A] | 2.35
GFGALLFICKLTF [F4A] | 1.81
GFGFLLAICKLTF [F7A] | 2.24
GFGFALFICKLTF [L5A] | 2.32

Series 5 — technique: DHFR PCA, deep sequencing; sample: yeast; with: (+)-ABA 2500 µM; relative to: wild-type fitted maximum; reading: higher = stronger binding
Target: ABI1, truncated, D143A, DHFR fusion (Arabidopsis thaliana)
Notes: methotrexate growth selection, single substitutions
Starting sequence: PYL1, truncated, DHFR fusion (Arabidopsis thaliana); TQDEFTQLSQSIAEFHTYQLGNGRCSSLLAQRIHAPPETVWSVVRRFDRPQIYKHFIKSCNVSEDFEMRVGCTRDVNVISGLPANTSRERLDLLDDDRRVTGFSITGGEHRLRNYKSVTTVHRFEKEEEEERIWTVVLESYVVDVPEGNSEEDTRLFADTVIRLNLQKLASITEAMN
Substitution | relative binding score
T135A | 92.3%
N77M | 99.3%
I52R | 97.8%
T160R | 93.7%
R45C | 91.6%
R69F | 90.1%
D75Q | 99.9%
V78R | 9.47%
L91V | 70%
N85P | 87.6%
D153S | 78%
A13G | 104%
K58T | 92.8%
E127F | 99.8%
C72N | 94.4%

Series 6 — technique: RNA Bind-n-Seq; form: RNA; sample: in vitro; concentration: 200 nM; notes: whole 134-nt RNA, ends assumed; with: 150 mM KCl; relative to: input library; reading: higher = stronger binding
Target: Ras GTPase-activating protein-binding protein 1, full length (G3BP1, Homo sapiens, UniProt Q13283)
Sequence of UniProt Q13283 (whole entry, looked up): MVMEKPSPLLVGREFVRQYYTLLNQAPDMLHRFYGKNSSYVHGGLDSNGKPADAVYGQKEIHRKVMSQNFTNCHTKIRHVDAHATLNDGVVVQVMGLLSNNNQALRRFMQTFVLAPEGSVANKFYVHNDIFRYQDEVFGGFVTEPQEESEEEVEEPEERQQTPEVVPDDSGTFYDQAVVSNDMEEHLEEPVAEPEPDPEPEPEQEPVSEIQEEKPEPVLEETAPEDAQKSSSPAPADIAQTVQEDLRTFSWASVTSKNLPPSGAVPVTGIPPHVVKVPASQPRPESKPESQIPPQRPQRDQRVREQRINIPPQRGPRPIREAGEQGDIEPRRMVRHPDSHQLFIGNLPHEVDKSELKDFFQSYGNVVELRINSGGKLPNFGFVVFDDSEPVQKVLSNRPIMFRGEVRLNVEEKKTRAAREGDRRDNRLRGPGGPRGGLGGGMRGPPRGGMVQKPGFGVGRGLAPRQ
Constant ends, left off below: GGGAGUUCUACAGUCCGACGAUC … UGGAAUUCUCGGGUGUCAAGG
Oligonucleotide | log2 enrichment
UCCUCAAGUCCUGUGCUACACAUCGUAUGUACCGAAUCGGCCGGCCGGCCGGAAAGUAUUAUGUUACGCCGUUCGGAUCUGCACUUCCAG | 1.4
ACCAUGCAGGUGGGCAUCUUUGGGAAGUGGGGCAAGGGGGGGAUAGGGAGGGGGGUAACACUUUGGGAACAGGUAAACCCAGGUCGUUUC | 1.01
CUCAAGUCCUGUGCUACACAUCGUAUGUACCGAAUCGGGUUGGUUGGGUUGGGAAAGUAUUAUGUUACGCCGUUCGGAUCUGCACUUCCA | 0.92
CACAGACAACACGCACCCACACAGACACAGGGGGAAGGGGUUGGGAUGGGGACAGGGUGCACAGCAGGGCGGGGUAGGACCCCAGCCCCU | 1.79
GUCCUGUGCUACACAUCGUAUGUACCGAAUCGGGGUUUGGGGAAAAAGGGGUUUGGGGAAAGUAUUAUGUUACGCCGUUCGGAUCUGCAC | 0.77
AGUGGGUUUGUUGAAGCAGUUGCUGGUGCAACAGCUAGGUUUGACUGAGAAGAGCGUUCAGGAAGACUGGCAACAUUUCCCAAGAUACAG | -1.97
GAAAUACCAUCGGAAGACGAUGGGACGGUGCUGCUCUCCACGGUUACAGCCCAGUUUCCAGGGGCGUGUGGGCUUCGCUACAGGAAUCCA | -1.17
CUCAAGUCCUGUGCUACACAUCGUAUGUACCGAAUCGGGGUUGGUUGGUUGGGGAAAGUAUUAUGUUACGCCGUUCGGAUCUGCACUUCC | 0.0978
GUCCUGUGCUACACAUCGUAUGUACCGAAUCGGGUUUUUGGGUUUUUUUGGGUUUGGGAAAGUAUUAUGUUACGCCGUUCGGAUCUGCAC | -0.402
GUCAAGAAAGAUCUUAAGACUGGUCAUUCAAAGGGGUUUGGCUUUGUUCGUUUUACGGAAUAUGAAACACAAGUGAAAGUAAUGUCACAG | -0.838
CUCAGACAACACGCACCCACACAGACACAGAGGGAAGGGGUUGGGAUGGGGACAGGGUGCACAGCAGGGCGGGGUAGGACCCCAGCCCCU | 1.95
CUCAAGUCCUGUGCUACACAUCGUAUGUACCGAAUCGGGAAGGGAAGGGGAAGGAAAGUAUUAUGUUACGCCGUUCGGAUCUGCACUUCC | 0.0201
UGGGAGGUGGAUUUUGUUUAUUUUUUUAGCUCAUUUCCAGGGGUGGGAAUUUUUUUUUAAUAUGUGUCAUGAAUAAAGUUGUUCUUGAAA | 0.326
CACAGACAACACGCACCCACACAGACACAGAGGGAAGGGGUUGGGAUGGGGAUAGGGUGCACAGCAGGGCGGGGUAGGACCCCAGCCCCU | 1.85

Some of these lines once more (series 2):
Oligonucleotide | RBNS enrichment (R)
AACCGCCACCUUUAGAAUUUCCAACACUCAGGCUCUGCCCGUCGGCUUGGCUGCAGGACAGAGACUUGACUCCAUCCCAGCUCUGGUCUUGGCUGGGAUGGCACUACCCU | 0.232
UUCACAGCAGGCCAGCUGCAGUGACUUGUCAUCAAGAGUCACCUCAGCUGCGCCCCCCUCCCAUCCUUUCCUAUGAGAAGCCACUGCUUUGGGGGCGCCGGCUAGAAAAA | 0.275
UCAUAGUGAUGAAGGACAGCACUGCAGACAUCUCCCUUGCCAUCUCUAGCCUGCUGUGGAAGGAAACAACGUGACUCAAGAUGAAGCUGUUUGUAUGUAUCCUUAUCAAA | 2.48
AGGCCUGGGCCAUUGUCCUCAUCCUGUAGUCAGGGAUCAGGCAUGGGUUUUGAUUUCAGUUUUCCCCCUUUCUCUGCCCUGGGGGCUGGGCUCCUUAUUGCUGCUUAGGC | 0.556
GUGUGAAGGGACCUGUGGCCACCAGAGGAUGCUCUGGGCCUACUGAGGACAGGCCACUUGUGCUCAGAGAACCUCACCUCACCGCAGAAGUGGUGCCUCUUCCAGAAGAC | 0.479
